Published values collected from several papers.
Compare with care: the assays were run in different laboratories. “And” joins repeats or separate records; there may be more than shown. Numbers after ± are the reported error.

SMILES	organism	assay	system	conditions	how to read	measurement	value
COc1ccc2c(c1)C(C)(C)C(/C=C/C1=C(Oc3ccc(C(=O)NCCCCOc4cc(CN(Cc5ccccn5)Cc5ccccn5)cc(CN(Cc5ccccn5)Cc5ccccn5)c4)cc3)C(=C/C=C3/N(CCCCS(=O)(=O)[O-])c4ccc(OC)cc4C3(C)C)CCC1)=[N+]2CCCCS(=O)(=O)[O-].O=[N+]([O-])[O-].O=[N+]([O-])[O-].[99Tc+].[C-]#[O+].[C-]#[O+].[C-]#[O+].[Zn+2]	Staphylococcus aureus		BALB/c mice, myositis, thyroid and trachea	intravenous, 0.74 MBq, 12 h post-injection		tissue uptake	1.3 %ID/g and 1.21 %ID/g and 0.52 %ID/g and 1.58 %ID/g
O=C(Oc1cc(OC(=O)c2cc(O)c(O)c(O)c2)c2ccccc2c1)c1cc(O)c(O)c(O)c1	Herpes simplex virus 2		HeLa, 333		baseline: CC50 over IC50	therapeutic index	20.8
O=C(CCC(=O)Nc1ccc(Cl)cc1Cl)N/N=C/c1ccc([N+](=O)[O-])o1	Trypanosoma cruzi	reporter mRNA translation, inhibitor, item: Renilla luciferase mRNA	cell-free extract	concentration not given, test 2	baseline: positive over negative control	translation activity	95.9%
CCN(CC)CC#CCNc1ccnc2cc(Cl)ccc12	Salmonella typhimurium	mini-Ames test	TA97a	62.5 µg/well, with rat liver S9		revertants	18 revertants/well and 16 revertants/well
O=C1C2CC3CC1CC(C(=O)N1CCN(c4ccc([N+](=O)[O-])c5ncccc45)CC1)(C3)C2	Salmonella typhimurium	Ames test	TA98	0.78 µg/well, without S9	baseline: vehicle	revertant fold increase	1
CN1CCCN(c2cnc3c(cc(C(=O)NCc4ccc(Cl)cc4)c(=O)n3CC(=O)N3CC(C)(F)C3)n2)C1=O	human cytomegalovirus		MRC-5, AD169-GFP		baseline: CC50 over EC50	selectivity ratio	> 21.2
CC(C)OCCOCc1ccc(OCC(O)CN(N=O)C(C)C)cc1 (centres unmarked)	Salmonella typhimurium	Ames test	TA100	15.8 µg/plate, without metabolic activation	baseline: solvent control	revertant fold increase	0.9 fold
Nc1nc2cc(C(=O)c3ccc(F)cc3)ccc2[nH]1	Salmonella typhimurium	Ames preincubation test	TA1537	4.9 µg per plate, 3 days, without S9		revertants	14.7 revertants per plate
O=C1NC2(CC2)COc2ncc(F)cc2[C@H]2COCCN2c2ccn3ncc1c3n2	Salmonella typhimurium	Ames test	TA100	500 µg/plate, 48 h, added: rat liver S9		revertant colonies	72 ± 8 revertants/plate
COc1cccc(CNC(=O)CCC2CCCN(C/C=C/c3ccccc3OC)C2)c1 (centres unmarked)	Trypanosoma cruzi	reporter mRNA translation, inhibitor, item: capped polyadenylated Renilla luciferase mRNA	cell-free extract	concentration not given	baseline: positive over negative control	translation activity	105% and 96.2% and 95.7% and 86.2%
COC(=O)Nc1nc2cc(C(O)c3ccc(F)cc3)ccc2[nH]1 (centres unmarked)	Salmonella typhimurium	Ames preincubation test	TA100	109.4 µg/plate, without S9		revertants	134 revertants/plate
